# Results pooled from the literature.
# Each line is one published result; not all experiments were run side by side. ± gives the spread as reported.
SMILES,test system,setting,half-life
CCOc1ccc(NC(=S)N(CCO)Cc2cc3cc(C)cc(C)c3[nH]c2=O)cc1,"C57BL/6J mouse, plasma",3 mg/kg,< 1 h
CSc1cc(C)nc(SC)c1NC(=O)CN1CCN(CCSc2nc3ccccc3[nH]2)CC1.Cl,"CD-1 mouse, female, plasma","intranasal, 32.4 µg/10 µL, 7 days repeated",0.245 ± 0.0183 h
Cc1cc(N(CCO)CCO)ccc1C(=O)O,"mouse CD2F1, plasma","intravenous, 20 mg/kg",0.567 h
O=C(c1ccc2ncc(-c3ccc4ncccc4c3)nc2c1)N1CCCCC1,"ICR/CD-1 mouse, female, liver S9","2 µM, pH 7.5",2.07 h
CC(C)NC(=O)COc1cccc(-c2nc(Nc3ccc4[nH]ncc4c3)c3ccccc3n2)c1,"male C57BL/6 mouse, plasma","oral, 100 mg/kg, one-compartment model",3.69 h
Cc1c2oc3c(C)ccc(C(=O)N[C@@H]4C(=O)N[C@H](C(C)C)C(=O)N5CCC[C@H]5C(=O)N(C)CC(=O)N(C)[C@@H](C(C)C)C(=O)O[C@@H]4C)c3nc-2c(C(=O)N[C@@H]2C(=O)N[C@H](C(C)C)C(=O)N3CCC[C@H]3C(=O)N(C)CC(=O)N(C)[C@@H](C(C)C)C(=O)O[C@@H]2C)c(N)c1=O,"mouse, FVB wild-type, kidney","intravenous, 0.5 mg/kg",2.18 h
Cl.Nc1ncc(-c2cnc3ccc(C(=O)N4CCCCC4)cc3n2)cc1Cl,"ICR/CD-1 mouse, female, liver S9","2 µM, pH 7.5",3.3 h
CNC(=O)c1cc(Oc2ccc(NC(=O)Nc3ccc(Cl)c(C(F)(F)F)c3)cc2)ccn1,"nude mouse, MHCC97H tumour xenograft, subcutaneous tumour","intratumoral, PXR siRNA",42.1 ± 2.79 h
